Results of several laboratories.
Each numbered part is a random draw from the data of one study; scales do not carry over between parts.

Study 1 — technique: RNA Bind-n-Seq; molecule type: RNA; sample: in vitro; concentration: 200 nM; notes: whole 134-nt RNA, ends assumed; added: 150 mM LiCl; baseline: input library; direction: higher = stronger binding; all molecules: 7-deaza-guanosine replaces G
Target: Fragile X messenger ribonucleoprotein 1, C-terminal low-complexity region (Fmr1, Mus musculus, UniProt P35922)
Shared flanks, not repeated: GGGAGUUCUACAGUCCGACGAUC … UGGAAUUCUCGGGUGUCAAGG
| Oligonucleotide | log2 enrichment |
| --- | --- |
| AAGUCCUGUGCUACACAUCGUAUGUACCGAAUCGGUUUUUGGAAAGGUUUUUUUGGAAAGUAUUAUGUUACGCCGUUCGGAUCUGCACUU | -2.43 |
| CCUGUGCUACACAUCGUAUGUACCGAAUCGGGGAAAAAAAGGGGAGGGGUUUUUUUGGGGAAAGUAUUAUGUUACGCCGUUCGGAUCUGC | -0.4 |
| UCCUGUGCUACACAUCGUAUGUACCGAAUCGGGGCCCCCCGGCCCCCCGGGGCCCCCCGGAAAGUAUUAUGUUACGCCGUUCGGAUCUGC | -0.852 |
| CCUCAAGUCCUGUGCUACACAUCGUAUGUACCGAAUCGGGAAGGAAGGAAGGGAAAGUAUUAUGUUACGCCGUUCGGAUCUGCACUUCCA | -1.1 |
| GUCCUGUGCUACACAUCGUAUGUACCGAAUCGGGAAAGGGUUUUUGGGUUUUUUUGGGAAAGUAUUAUGUUACGCCGUUCGGAUCUGCAC | -1.96 |
| CCUGUGCUACACAUCGUAUGUACCGAAUCGGGGUUUGGGGAAAAAAAGGGGAAAAAGGGGAAAGUAUUAUGUUACGCCGUUCGGAUCUGC | -0.0468 |
| AGUCCUGUGCUACACAUCGUAUGUACCGAAUCGGGGUGGGGAAAAAAAGGGGAGGGGAAAGUAUUAUGUUACGCCGUUCGGAUCUGCACU | -0.00581 |
| UGGCCCUGGUGGCAUGCGGGGAGGCAGAGGUGGCCUCAUGGAUCGUGGUGGUCCCGGUGGAAUGUUCAGAGGUGGCCGUGGUGGAGACAG | -0.518 |

Study 2 — technique: RNA Bind-n-Seq; molecule type: RNA; sample: in vitro; concentration: 365 nM; baseline: no-protein control; direction: higher = stronger binding
Target: RNA binding protein fox-1 homolog 2, RRM domain, GST-SBP tag (RBFOX2, Homo sapiens, UniProt O43251-10, residues 100-194)
Notes: natural RNA segment, single round, ends assumed
Shared flanks, not repeated: GGGAGUUCUACAGUCCGACGAUC … UGGAAUUCUCGGGUGCCAA
Construct (chain): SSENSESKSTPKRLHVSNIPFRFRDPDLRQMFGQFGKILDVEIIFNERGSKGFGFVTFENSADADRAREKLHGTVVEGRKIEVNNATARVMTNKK
| Oligonucleotide | RBNS enrichment (R) |
| --- | --- |
| GCCCCUCCUAGUUCUUCAUCCCACUCCAACUCUUCCCCCUCUCCCAGUUGUCCCGAUUGUAACUCAAAGGGUGGAAUAUCAAGGUCGUUUUUUUCAUUCCAUGUGCCCAG | 1.36 |
| UCUGCCCUUUAUCUCACACUCCCUAUCCUUGGCCCACUGCCAGUCCCUGCCUUGUGGCAAAGGGGCCCCAAAAGAAAAGCUGCCCUUCCCCAAAUGUAAGGACCCAGGUA | 1.14 |
| AGCAGUUGAGGAAAAAAGACAACAUAGGAGUUAUUAAUGUCAAUACCCAUCAACAUAAUCACUCUGACAAUGUUCACGCAUUCAACUAUGAGUUCAUAUGUGGAAGAAAA | 0.303 |
| AAAGACAACUGACAUUUAUUGAAUAUCAUGCACUAGUCCCUUACAUAUGUCAUAUUUUAAUUAUAGAAAUCAGUAGCAAAAAGAAUCUUGGGGAUUUUCCAUCUGACUUC | 0.696 |
| CCAUAUUUGUGGAUCGGGUAGUGGGAAAAGAGAUUAUAAUACUUGUCUUUCUCUCCUCUCCCUCCAUCCCUCAAAAGAUCUUUAUGCAUUUCCCACUACUCCCUUACUGU | 0.848 |
| AUCACAUUCUAGGAAGCAAUGGCAGGUGACAUCACUAUUAUAAUAGGAACAAUGCAUUCUAAUGGUACAACUGCCAAAACCCACCCUUGGUUUCUGAUGAUUUAUAAGUA | 0.438 |
| GGCACCAGGCACUUGACCUUGGGGGGUCUACAAGCAAGAUGAGUUCUGAUAGGCACAGUCCAGCCCAGUCUAGCACCACCUUUUAUGGUAGUUGAUCACUCUGAGGAGGU | 0.484 |
| CCCCACCACCAUAGUUUUGUGCUAUCCUAGUUUCUGUUAAGAUUGGUGCUAUCCAAUUCCCAUCACUAGGAGGUGGCUGAGCUUGAGGCUUGCCAGACACAGGAAUGGCC | 0.211 |
| UUUCUAUAAGAAGAAAAUUAAGACCACUUAUUUGAAAACAAAGAUGAAAUGUCACCACCCGUUUGCGCUCUCAUUCCUUCCAAGCCUGUGACUGGUAUUUUCUCAUGAUG | 0.409 |
| GGAAGGUGUCGUUUUUACACUGCUAAUGACGAGAGUGGCUCUUUUUAGCUAGGCGAGUACAGACGGGGCCUGGGAGGGGGCAGAGAUGUUCCCCAGGCCCUGCCUGUGGU | 0.312 |
| GGACCCACGCUGUCUGCGCUGGCUCCACCCGGGAACCCGCCGCACGCUGUGUUCUAGGCCCGCCCACCCCAACCUUCUGGUGGGGAGAAAUAAACGGUUUAGAGACUAGG | 2.23 |
| CUACUGAAUCAGAAACCCUGGGGUUGGAGCUCAGCAAUUACCCUGCAGGUAAUUCUGAUGCAUGCUCAAGUUUGAGAACCACUGGCCUAGAAGAAAUGAACUACUGCAAC | 17.8 |

Study 3 — technique: protein-binding microarray; molecule type: double-stranded DNA, one strand shown; sample: in vitro; concentration: 0.8 µM; notes: whole 60-bp probe, no competitor; direction: higher = stronger binding; shared flanks, not repeated: … GTCTTGATTCGCTTGACGCTGCTG
Target: Centromere-binding protein 1, full length, N-terminal tag (CBF1, Saccharomyces cerevisiae, UniProt P17106, residues 1-351)
UniProt P17106, sequence (whole entry, looked up): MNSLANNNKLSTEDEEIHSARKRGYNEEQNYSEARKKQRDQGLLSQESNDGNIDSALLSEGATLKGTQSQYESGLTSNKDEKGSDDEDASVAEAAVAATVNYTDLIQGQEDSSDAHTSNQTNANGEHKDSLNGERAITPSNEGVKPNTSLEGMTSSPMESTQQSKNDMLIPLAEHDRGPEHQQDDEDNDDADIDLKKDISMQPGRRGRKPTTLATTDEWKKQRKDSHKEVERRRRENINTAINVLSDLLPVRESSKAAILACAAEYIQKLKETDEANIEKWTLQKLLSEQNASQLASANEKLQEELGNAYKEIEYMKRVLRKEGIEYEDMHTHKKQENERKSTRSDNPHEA
| Oligonucleotide | fluorescence intensity [a.u.] |
| --- | --- |
| CTAACCTACACTTGCCTCGTGGCGGGAAACTGCTTC | 575 |
| GAACAGCCCTTTCATCACCTTCCTTACAGGGGTTAG | 518 |
| GAAAACCATAAAGGACATCAGAAGAGTTTTACATAG | 515 |
| CTAACGGAAGTACATCTGCTGATACATTTGAAATTC | 578 |
| CTAAAACGAATAACGGTGGTGATCCCGCGGCTTTTC | 500 |
| GAAGATATCATACATCACCCCATTACGTTATTTTAG | 532 |
| GAACCAGAGCCAACCCAGGTGAGACTGGATGCTTAG | 488 |
| GAATCTTGTCGTAGTAGCGTGATTCTATTCAGTTAG | 795 |
| CTAGAGTTCTTTCACGTGCTGTGTTCGGCCCGCTTC | 4000 |

Study 4 — technique: RNA Bind-n-Seq; molecule type: RNA; sample: in vitro; concentration: 100 nM; baseline: input RNA pool; direction: higher = stronger binding
Target: RING finger protein unkempt homolog, zinc fingers 1-6, SBP tag (UNK, Homo sapiens, UniProt Q9C0B0, residues 30-357)
UniProt Q9C0B0, sequence (30-357, looked up): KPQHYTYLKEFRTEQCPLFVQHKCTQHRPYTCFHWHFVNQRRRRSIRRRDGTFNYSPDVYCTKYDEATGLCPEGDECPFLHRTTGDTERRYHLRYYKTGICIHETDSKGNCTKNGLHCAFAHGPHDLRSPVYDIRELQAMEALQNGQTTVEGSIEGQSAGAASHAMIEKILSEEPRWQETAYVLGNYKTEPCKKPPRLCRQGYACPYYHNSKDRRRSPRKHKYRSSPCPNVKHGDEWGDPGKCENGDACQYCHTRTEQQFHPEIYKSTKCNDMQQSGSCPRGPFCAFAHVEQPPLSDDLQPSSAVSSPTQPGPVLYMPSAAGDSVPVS
Notes: RNA with constant flanks, vertebrate orthologous sites, ends assumed
Shared flanks, not repeated: GGGAGUUCUACAGUCCGACGAUC … CAACAGAGGAUUGAGCAUCA
| Oligonucleotide | bound/input enrichment |
| --- | --- |
| UAUUUAAAAUACAUUUAGUAGUAUUUAAUAACCUCAUUCCUAGUUCCUUGUUCAUUAAAGUAGCUCCUUUCUAUUAUUACCAUUUUUAACAGUAUGAACAAGUUGAAGGUUUGUGCAGUA | 1.8 ratio |
| CUCGGGGAUACCGUGGGGCGCUGCUGACUGCUUCGCGUUGUUUGAUUUGUGACCUUGACAUAAUAGAUAGGCUUGUGGUUUGUUUGUUUUUUUAAUUUAAAGAUAUUAAAACUUAAUUCA | 0.536 ratio |
| GUUGGGUCAUGACCCCUACAGGUUAGGCCAUGAUGCUUACAGGUUAGGACAAGACCCUUAUAGAUUAGGCCAUGAUCCCUACAGACUAACUCCGGAUCCCUAUAGGGUAUCACCUAGGCC | 0.301 ratio |
| AUAUGUAGAGAAAAAUUUGCUUUGACCCCACCCGUUUGUGAAAUUCCUUAGAAAUUUACUUGGAAUCUUCAUUUUUCUAAUUCAAGCUCACUGCAUUAGUCAUUUUUAGCCCGUAAUUAA | 1.55 ratio |
| UCAGUCUCUUCCUGUCCUGAGUUUUAUUAAGAAAUCCUUUUUUCUUUUUCUUCUUUUAGGGGAUAUAUAGUAAUAUUAGUGUAAAGAUUUUAAUUUGGGCAACUUUGACUCUUAAGAGAA | 1.09 ratio |
| GAUUUGGACCUUGGAGCUGAACCAGUGAGCUAGCAAAAGUAAAGCAGACUUGUAAAAUUAUAGCUAUAUGCAGCUGCACAACACAGUCCUACCACUAGCAGCUGUGUUAAAGUAUUUAUA | 0.884 ratio |
| CCCCAUAAUCCCAUCUCAUCUGUCUCUUAAUGGAAUGGGAUGUUCCUGCCUCUGGAUUCAUUGGAGCCAUGCAUGUACUUGAAGGAUGUAUGAGUCAGACACUUACUGGCAAAUGGGACA | 0.458 ratio |
| CAAUUCCAUGGUUGAAGGUUCAGAACUCAAAAAGGUCCGCUCGAACUCUAGAAUUUACCAUAGAUAUUUUUUACUGGAUGCUGACAUGCAGAGCUUGAGGUGGGAGCCAUCGAAGAAGGA | 3.09 ratio |

Study 5 — technique: protein-binding microarray; molecule type: double-stranded DNA, one strand shown; sample: in vitro; concentration: 250 nM; notes: 60-bp whole probe; added: salmon DNA 0.4 mg/ml; baseline: random background probes; direction: higher = stronger binding; shared flanks, not repeated: GCCTAGCAC … GTCTTGATTCGCTTGACGCTGCTG
Target: Interferon regulatory factor 5, full length, phosphomimetic (IRF5, Homo sapiens, UniProt Q13568-2, residues 1-514, K96S/S451D/S453D/S456D/S462D)
| Oligonucleotide | log fluorescence [z-score] |
| --- | --- |
| GACGGTATCGACACTGGGGAGGTGCTA | 1.61 |
| TCAGTCCTCACTTCCTTCTGGTGCTAG | 0.139 |
| GACGGTTTCGAGACTGGGGACGTGCTA | 3.37 |
| TTAGAACTGGGGTATCGATTTGTGCTA | 2.01 |
| TTAGATCTAAGTCTCGATTAGTGCTAG | 0.72 |
| TTAGAACTGAGTATCGTTTAGTGCTAG | 3 |
| GACGGTATCGACTATCGCGACGTGCTA | 2.84 |
| GACGATATCAGTCTCGTGACGTGCTAG | 0.982 |
| TCATCTCTCCATGTGTTACTGTGCTAG | 0.475 |
| TCATTTTCATTTTCCAAACTGTGCTAG | 4.06 |
| CTTGGCAAGATGAGGAAGATGTGCTAG | -0.535 |
